Experimental data gathered from unrelated publications.
Lines come from different studies, so protocols differ.
B1: AXIN1 745-826 Y760D (Homo sapiens, UniProt O15169-2); sequence looked up; chain DSIVVAYYFCGEPIPDRTLVRGRAVTLGQFKELLTKKGSYRYYFKKVSDEFDCGVVFEEVREDEAVLPVFEEKIIGKVEKVD
B2: FUS 141-214 (Homo sapiens, UniProt P35637); sequence looked up; chain QSYGQQQSYNPPQGYGQQNQYNSSSGGGGGGGGGGNYGQDQSSMSSGGGSGGGYGNQDQSGGGGSGGYGQQDRG
B3: gyrB (Bacillus subtilis, UniProt P05652); sequence looked up; chain MEQQQNSYDENQIQVLEGLEAVRKRPGMYIGSTNSKGLHHLVWEIVDNSIDEALAGYCTDINIQIEKDNSITVVDNGRGIPVGIHEKMGRPAVEVIMTVLHAGGKFDGSGYKVSGGLHGVGASVVNALSTELDVTVHRDGKIHRQTYKRGVPVTDLEIIGETDHTGTTTHFVPDPEIFSETTEYDYDLLANRVRELAFLTKGVNITIEDKREGQERKNEYHYEGGIKSYVEYLNRSKEVVHEEPIYIEGEKDGITVEVALQYNDSYTSNIYSFTNNINTYEGGTHEAGFKTGLTRVINDYARKKGLIKENDPNLSGDDVREGLTAIISIKHPDPQFEGQTKTKLGNSEARTITDTLFSTAMETFMLENPDAAKKIVDKGLMAARARMAAKKARELTRRKSALEISNLPGKLADCSSKDPSISELYIVEGDSAGGSAKQGRDRHFQAILPLRGKILNVEKARLDKILSNNEVRSMITALGTGIGEDFNLEKARYHKVVIMTDADVDGAHIRTLLLTFFYRYMRQIIENGYVYIAQPPLYKVQQGKRVEYAYNDKELEELLKTLPQTPKPGLQRYKGLGEMNATQLWETTMDPSSRTLLQVTLEDAMDADETFEMLMGDKVEPRRNFIEANARYVKNLDI
B4: SNX3 (Saccharomyces cerevisiae, UniProt Q08826); chain MPREFKSFGSTEKSLLSKGHGEPSYSEIYAEPENFLEIEVHNPKTHIPNGMDSKGMFTDYEIICRTNLPSFHKRVSKVRRRYSDFEFFRKCLIKEISMLNHPKVMVPHLPGKILLSNRFSNEVIEERRQGLNTWMQSVAGHPLLQSGSKVLVRFIEAEKFVG
B5: PAGE4 A18C (Homo sapiens, UniProt O60829); Alexa 555/647 on C18, C63; sequence looked up; chain MSARVRSRSRGRGDGQECPDVVAFVAPGESQQEEPPTDNQDIEPGQEREGTPPIEERKVEGDCQEMDLEKTRSERGDGSDVKEKTPPNPKHAKTKEAGDGQP
B6: S100A12 (Homo sapiens, UniProt P80511); sequence looked up; chain MTKLEEHLEGIVNIFHQYSVRKGHFDTLSKGELKQLLTKELANTIKNIKDKAVIDEIFQGLDANQDEQVDFQEFISLVAIALKAAHYHTHKE
B7: UGT1A9 (Homo sapiens, UniProt O60656); chain GKLLVVPMDGSHWFTMRSVVEKLILRGHEVVVVMPEVSWQLGRSLNCTVKTYSTSYTLEDLDREFKAFAHAQWKAQVRSIYSLLMGSYNDIFDLFFSNCRSLFKDKKLVEYLKESSFDAVFLDPFDNCGLIVAKYFSLPSVVFARGILCHYLEEGAQCPAPLSYVPRILLGFSDAMTFKERVRNHIMHLEEHLLCHRFFKNALEIASEILQTPVTEYDLYSHTSIWLLRTDFVLDYPKPVMPNMIFIGGINCHQGKPLPMEFEAYINASGEHGIVVFSLGSMVSEIPEKKAMAIADALGKIPQTVLWRYTGTRPSNLANNTILVKWLPQNDLLGHPMTRAFITHAGSHGVYESICNGVPMVMMPLFGDQMDNAKRMETKGAGVTLNVLEMTSEDLENALKAVINDKSYKENIMRLSSLHKDRPVEPLDLAVFWVEFVMRHKGAPHLRPAAHDLTWYQYHSLDVIGFLLAVVLTVAFITFKCCAYGYRKCLGKKGRVKKAHKSKTH
B8: LRPAP1 (Homo sapiens, UniProt P30533); sequence looked up; chain YSREKNQPKPSPKRESGEEFRMEKLNQLWEKAQRLHLPPVRLAELHADLKIQERDELAWKKLKLDGLDEDGEKEARLIRNLNVILAKYGLDGKKDARQVTSNSLSGTQEDGLDDPRLEKLWHKAKTSGKFSGEELDKLWREFLHHKEKVHEYNVLLETLSRTEEIHENVISPSDLSDIKGSVLHSRHTELKEKLRSINQGLDRLRRVSHQGYSTEAEFEEPRVIDLWDLAQSANLTDKELEAFREELKHFEAKIEKHNHYQKQLEIAHEKLRHAESVGDGERVSRSREKHALLEGRTKELGYTVKKHLQDLSGRISRARHNEL
B9: MPLKIP (Homo sapiens, UniProt Q8TAP9); sequence looked up; chain MQRQNFRPPTPPYPGPGGGGWGSGSSFRGTPGGGGPRPPSPRDGYGSPHHTPPYGPRSRPYGSSHSPRHGGSFPGGRFGSPSPGGYPGSYSRSPAGSQQQFGYSPGQQQTHPQGSPRTSTPFGSGRVREKRMSNELENYFKPSMLEDPWAGLEPVSVVDISQQYSNTQTFTGKKGRYFC
B10: CCS1 1-74 C17S/C20S (Saccharomyces cerevisiae, UniProt P40202); sequence looked up; chain MTTNDTYEATYAIPMHSENSVNDIKACLKNVPGINSLNFDIEQQIMSVESSVAPSTIINTLRNCGKDAIIRGAG
B11: UBTF 491-746 (Homo sapiens, UniProt P17480); sequence looked up; chain IWQQSVIGDYLARFKNDRVKALKAMEMTWNNMEKKEKLMWIKKAAEDQKRYERELSEMRAPPAATNSSKKMKFQGEPKKPPMNGYQKFSQELLSNGELNHLPLKERMVEIGSRWQRISQSQKEHYKKLAEEQQKQYKVHLDLWVKSLSPQDRAAYKEYISNKRKSMTKLRGPNPKSSRTTLQSKSESEEDDEEDEDDEDEDEEEEDDENGDSSEDGGDSSESSSEDESEDGDENEEDDEDEDDDEDDDEDEDNESE
B12: VPS5/VPS17 SNX-BAR complex (Saccharomyces cerevisiae); chain 1 MDYEDNLEAPVWDELNHEGDKTQSLVSNSIESIGQISTNEERKDNELLETTASFADKIDLDSAPEWKDPGLSVAGNPQLEEHDNSKADDLINSLAPEQDPIADLKNSTTQFIATRESGGALFTGNANSPLVFDDTIYDANTSPNTSKSISGRRSGKPRILFDSARAQRNSKRNHSLKAKRTTASDDTIKTPFTDPLKKAEKENEFVEEPLDDRNERRENNEGKFTASVEKNILEQVDRPLYNLPQTGANISSPAEVEENSEKFGKTKIGSKVPPTEKAVAFKVEVKDPVKVGELTSIHVEYTVISESSLLELKYAQVSRRYRDFRWLYRQLQNNHWGKVIPPPPEKQSVGSFKENFIENRRFQMESMLKKICQDPVLQKDKDFLLFLTSDDFSSESKKRAFLTGSGAINDSNDLSEVRISEIQLLGAEDAAEVLKNGGIDAESHKGFMSISFSSLPKYNEADEFFIEKKQKIDELEDNLKKLSKSLEMVDTSRNTLAASTEEFSSMVETLASLNVSEPNSELLNNFADVHKSIKSSLERSSLQETLTMGVMLDDYIRSLASVKAIFNQRSKLGYFLVVIENDMNKKHSQLGKLGQNIHSEKFREMRKEFQTLERRYNLTKKQWQAVGDKIKDEFQGFSTDKIREFRNGMEISLEAAIESQKECIELWETFYQTNL; chain 2 MTSAVPYDPYDDLDNNPFAEPQEEDSEPAATTTDGSSSMSEERVGTEQTAASVQDNGTANNIQNGLGEEGNATRSKTSNEHNENQQPSQPSERVILPERSDEKKKYTLLAKVTGLERFGSATGKKENPTIIFDCSTNLPTFRKQQYKNVKKSYEEFHQLFKYLNVAIQESFVPTLPSAYTTFGINSEEDRMKVTRNFQLWFNRLSQDPLIIRNEEVAFFIESDFNTYTPINKSKSLASGLKRKTLKQLAPPYDEITELAEFRPLVKSIYVVSQSLQEKLLRVSRNRKMMVQEENAFGQDFVNLDEHNKLYRRYGKILTAVGDIDSIIATMDMATLYDGLEWIVRDAYAVKEALTNRHFIMRNLVQAQQNSKAKQEQARRFRSRRDINPMKIDEALRQLKAAAKNEQVLTLKLQRITSNMIIERKQWISWYEEWIRSSIKEFTLRKIEYERKKLTLLERVRSDIRKADENGGLSRLGRHAVSNNNSDTSQTLKGDSWTGESNRKSQIPINKIAHTEFDDELFTEDDGYNSQDSDTTSLNARHAASLLGMSTK
Sequence of UniProt P13334 (whole entry, looked up): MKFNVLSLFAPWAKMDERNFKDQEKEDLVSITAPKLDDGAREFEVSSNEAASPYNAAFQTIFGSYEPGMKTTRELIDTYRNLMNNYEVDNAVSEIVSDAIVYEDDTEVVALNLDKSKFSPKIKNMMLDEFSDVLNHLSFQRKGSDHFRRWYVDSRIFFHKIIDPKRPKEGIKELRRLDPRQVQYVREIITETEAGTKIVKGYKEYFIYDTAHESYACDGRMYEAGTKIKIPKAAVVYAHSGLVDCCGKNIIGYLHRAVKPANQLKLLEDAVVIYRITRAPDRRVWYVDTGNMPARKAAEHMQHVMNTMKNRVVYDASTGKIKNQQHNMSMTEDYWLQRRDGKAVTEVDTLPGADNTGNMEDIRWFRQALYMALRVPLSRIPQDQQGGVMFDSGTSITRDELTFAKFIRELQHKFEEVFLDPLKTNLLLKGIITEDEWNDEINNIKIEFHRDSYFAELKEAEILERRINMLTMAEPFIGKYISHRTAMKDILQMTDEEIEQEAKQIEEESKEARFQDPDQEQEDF
Sequence of UniProt P36046 (whole entry, looked up): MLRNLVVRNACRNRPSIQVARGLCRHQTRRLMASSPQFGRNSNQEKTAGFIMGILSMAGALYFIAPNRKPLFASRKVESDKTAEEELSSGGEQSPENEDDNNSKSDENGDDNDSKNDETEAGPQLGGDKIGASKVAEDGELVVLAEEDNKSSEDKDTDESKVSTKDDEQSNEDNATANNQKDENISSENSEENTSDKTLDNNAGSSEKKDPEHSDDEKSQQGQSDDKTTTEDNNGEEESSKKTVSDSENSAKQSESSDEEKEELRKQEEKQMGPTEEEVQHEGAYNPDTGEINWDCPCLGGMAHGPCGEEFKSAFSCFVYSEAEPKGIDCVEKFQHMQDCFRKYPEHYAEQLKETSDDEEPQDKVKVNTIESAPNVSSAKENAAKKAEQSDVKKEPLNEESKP
Sequence of UniProt Q68Y81 (whole entry, unmodified, looked up): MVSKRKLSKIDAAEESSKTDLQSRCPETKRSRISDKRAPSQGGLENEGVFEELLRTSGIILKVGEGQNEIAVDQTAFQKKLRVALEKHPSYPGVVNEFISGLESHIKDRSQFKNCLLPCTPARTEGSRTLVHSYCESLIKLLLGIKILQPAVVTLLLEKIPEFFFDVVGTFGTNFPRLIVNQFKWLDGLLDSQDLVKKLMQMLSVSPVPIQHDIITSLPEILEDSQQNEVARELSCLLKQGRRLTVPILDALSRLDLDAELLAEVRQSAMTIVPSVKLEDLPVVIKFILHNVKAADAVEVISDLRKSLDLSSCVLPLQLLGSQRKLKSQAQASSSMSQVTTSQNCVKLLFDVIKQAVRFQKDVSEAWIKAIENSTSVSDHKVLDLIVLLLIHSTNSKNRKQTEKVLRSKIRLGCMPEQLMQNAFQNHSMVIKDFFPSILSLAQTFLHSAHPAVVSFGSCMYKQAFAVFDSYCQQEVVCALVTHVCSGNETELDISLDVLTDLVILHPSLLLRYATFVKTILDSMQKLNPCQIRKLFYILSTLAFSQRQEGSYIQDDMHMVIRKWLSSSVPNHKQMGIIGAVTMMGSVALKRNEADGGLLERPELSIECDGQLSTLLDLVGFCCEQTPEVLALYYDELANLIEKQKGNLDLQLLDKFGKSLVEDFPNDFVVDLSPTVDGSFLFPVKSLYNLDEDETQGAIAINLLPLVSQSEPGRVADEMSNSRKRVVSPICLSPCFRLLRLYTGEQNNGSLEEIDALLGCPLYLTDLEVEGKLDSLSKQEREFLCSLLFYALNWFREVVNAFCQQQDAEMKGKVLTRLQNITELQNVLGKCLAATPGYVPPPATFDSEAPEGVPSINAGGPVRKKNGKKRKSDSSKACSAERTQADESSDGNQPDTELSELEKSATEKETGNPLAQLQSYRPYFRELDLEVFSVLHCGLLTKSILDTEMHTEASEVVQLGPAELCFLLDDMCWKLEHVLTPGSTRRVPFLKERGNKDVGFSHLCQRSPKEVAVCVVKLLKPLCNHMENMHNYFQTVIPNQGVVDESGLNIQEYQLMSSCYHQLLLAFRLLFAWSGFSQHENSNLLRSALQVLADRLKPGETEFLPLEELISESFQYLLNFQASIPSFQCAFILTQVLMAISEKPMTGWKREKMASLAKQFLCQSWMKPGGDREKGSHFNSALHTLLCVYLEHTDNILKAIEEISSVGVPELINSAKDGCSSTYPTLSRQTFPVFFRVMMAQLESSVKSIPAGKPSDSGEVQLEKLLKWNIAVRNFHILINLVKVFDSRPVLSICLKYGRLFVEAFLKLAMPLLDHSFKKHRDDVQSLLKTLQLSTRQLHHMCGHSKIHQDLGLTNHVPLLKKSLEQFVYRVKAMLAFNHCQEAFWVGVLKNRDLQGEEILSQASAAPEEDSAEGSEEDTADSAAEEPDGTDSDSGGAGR
Sequence of UniProt P05653 (whole entry, unmodified, looked up): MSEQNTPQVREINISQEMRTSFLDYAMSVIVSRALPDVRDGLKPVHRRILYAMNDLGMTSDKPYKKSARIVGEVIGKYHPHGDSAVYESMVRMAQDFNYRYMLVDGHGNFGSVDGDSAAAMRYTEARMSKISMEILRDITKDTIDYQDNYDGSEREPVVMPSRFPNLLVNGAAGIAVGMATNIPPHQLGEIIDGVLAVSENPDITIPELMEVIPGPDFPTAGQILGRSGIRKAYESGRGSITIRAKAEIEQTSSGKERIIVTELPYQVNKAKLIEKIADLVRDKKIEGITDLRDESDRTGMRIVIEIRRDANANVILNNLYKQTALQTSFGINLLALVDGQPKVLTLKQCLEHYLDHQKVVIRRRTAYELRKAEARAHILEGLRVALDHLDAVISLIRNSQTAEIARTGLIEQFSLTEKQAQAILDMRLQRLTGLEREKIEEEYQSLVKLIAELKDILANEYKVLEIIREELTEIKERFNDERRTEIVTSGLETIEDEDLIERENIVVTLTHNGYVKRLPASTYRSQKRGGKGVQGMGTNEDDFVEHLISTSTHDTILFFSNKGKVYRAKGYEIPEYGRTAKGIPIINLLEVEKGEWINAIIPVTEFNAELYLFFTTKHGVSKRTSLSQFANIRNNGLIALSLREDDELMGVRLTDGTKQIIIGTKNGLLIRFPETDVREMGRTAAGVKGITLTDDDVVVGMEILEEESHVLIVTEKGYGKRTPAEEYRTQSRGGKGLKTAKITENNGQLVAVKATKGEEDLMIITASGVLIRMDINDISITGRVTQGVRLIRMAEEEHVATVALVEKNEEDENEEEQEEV
Sequence of UniProt B0I564 (whole entry, unmodified, looked up): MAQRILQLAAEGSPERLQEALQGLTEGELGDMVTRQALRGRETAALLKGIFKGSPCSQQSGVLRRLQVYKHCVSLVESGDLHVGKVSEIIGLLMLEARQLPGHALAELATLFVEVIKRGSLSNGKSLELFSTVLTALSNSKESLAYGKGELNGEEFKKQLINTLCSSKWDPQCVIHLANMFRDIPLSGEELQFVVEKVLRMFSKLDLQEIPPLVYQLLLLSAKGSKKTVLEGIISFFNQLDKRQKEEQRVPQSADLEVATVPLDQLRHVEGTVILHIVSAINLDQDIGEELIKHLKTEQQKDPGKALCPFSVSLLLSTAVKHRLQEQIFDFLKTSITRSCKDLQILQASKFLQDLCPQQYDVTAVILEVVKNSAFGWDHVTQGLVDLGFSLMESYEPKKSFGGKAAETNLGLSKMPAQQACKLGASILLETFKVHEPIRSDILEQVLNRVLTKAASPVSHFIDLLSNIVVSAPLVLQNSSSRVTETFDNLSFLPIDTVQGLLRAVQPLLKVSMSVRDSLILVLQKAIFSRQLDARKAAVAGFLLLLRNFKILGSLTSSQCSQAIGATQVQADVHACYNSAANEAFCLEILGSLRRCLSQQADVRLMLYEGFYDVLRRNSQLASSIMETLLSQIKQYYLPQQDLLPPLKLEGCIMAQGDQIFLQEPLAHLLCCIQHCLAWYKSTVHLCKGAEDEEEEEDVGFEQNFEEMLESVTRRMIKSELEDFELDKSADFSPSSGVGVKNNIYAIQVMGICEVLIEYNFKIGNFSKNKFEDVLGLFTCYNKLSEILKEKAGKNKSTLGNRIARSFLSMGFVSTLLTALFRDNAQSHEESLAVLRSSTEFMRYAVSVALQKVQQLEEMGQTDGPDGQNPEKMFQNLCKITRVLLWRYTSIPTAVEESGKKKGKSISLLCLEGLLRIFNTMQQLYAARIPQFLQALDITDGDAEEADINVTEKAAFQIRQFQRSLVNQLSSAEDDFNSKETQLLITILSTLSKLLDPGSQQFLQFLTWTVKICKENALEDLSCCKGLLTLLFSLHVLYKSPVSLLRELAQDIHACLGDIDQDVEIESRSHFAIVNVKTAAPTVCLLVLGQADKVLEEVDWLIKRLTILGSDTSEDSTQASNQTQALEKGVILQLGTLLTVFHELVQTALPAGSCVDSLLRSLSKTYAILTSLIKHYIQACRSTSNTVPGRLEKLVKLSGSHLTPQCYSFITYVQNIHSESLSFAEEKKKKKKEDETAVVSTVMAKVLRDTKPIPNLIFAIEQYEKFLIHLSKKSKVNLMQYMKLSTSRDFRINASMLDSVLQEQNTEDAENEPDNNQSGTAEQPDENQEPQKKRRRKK
Sequence of UniProt P32854 (whole entry, looked up): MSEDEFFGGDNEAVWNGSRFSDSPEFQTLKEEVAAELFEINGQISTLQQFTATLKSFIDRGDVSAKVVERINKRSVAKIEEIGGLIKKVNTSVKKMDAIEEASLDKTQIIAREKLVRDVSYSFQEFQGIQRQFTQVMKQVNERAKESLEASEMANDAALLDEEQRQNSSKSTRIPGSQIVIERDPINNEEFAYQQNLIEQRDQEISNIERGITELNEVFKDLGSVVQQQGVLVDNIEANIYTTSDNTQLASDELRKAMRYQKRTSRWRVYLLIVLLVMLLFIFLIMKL

B1 (AXIN1 745-826 Y760D) — binding (DVL2 12-93 V67A/K68A (Homo sapiens, UniProt O14641); crystal structure): binds
B2 (FUS 141-214) — binding (FUS 111-214 (Homo sapiens, UniProt P35637); hydrogel binding assay): binds
B3 (gyrB) — binding (gyrA heterodimer 2-821 C350L/T140C/K570C, Alexa488 and Alexa546 labels (Bacillus subtilis, UniProt P05653); smFRET; pH 7.5, 37 °C, KCl 100 mM): binds
gp20 (bacteriophage T4, UniProt P13334) — binding (GFP/gp17 fusion (bacteriophage T4); co-sedimentation; 30 min, NaCl 100 mM, bound relative to gp23): binds
SEETKENEGFTVTAEGKGQGTLSVVTMYHAKAKDQLTCNK (C3 1321-1360 (Homo sapiens, UniProt P01024); sequence looked up) — binding (ITGAM 145-331 (Homo sapiens, UniProt P11215); ELISA; with: MgCl2 1 mM): binds
BACH1 BTB domain C109A, S-nitrosylation treated (Homo sapiens) (sequence not shown) — binding (FBXL17/SKP1 FBXL17 310-701 (Homo sapiens); BLI; apparent): binds
B4 (SNX3) — binding (PEP12 cytosolic domain 1-266 (Saccharomyces cerevisiae, UniProt P32854); GUV recruitment, fluorescence microscopy; with: PI-3-P): binds
B5 (PAGE4 A18C) — binding (JUN 1-241 (Homo sapiens, UniProt P05412); single-molecule FRET): binds
B6 (S100A12) — binding (AGER extracellular domain 23-342 N25Q (Homo sapiens, UniProt Q15109); ELISA; with: CaCl2 1 mM): binds
BACH1 BTB domain C107A, S-nitrosylation treated (Homo sapiens) (sequence not shown) — binding (FBXL17/SKP1 FBXL17 310-701 (Homo sapiens); BLI; apparent): binds
Ac-WKLLITIHDRKEFAKF-{βAla-βAla-cellulose} (ITGB3 715-730 (Homo sapiens); reading uncertain; also: C-terminus attached to cellulose; N-acetyl, cellulose-bound; βAla = NCCC(=O)O; cellulose = not defined here) — binding (Myom1 fragment (Mus musculus); peptide array; peptide; 3 h, 22 °C): binds
B7 (UGT1A9) — Vmax (O=C(c1ccccc1)c1ccc(O)cc1; steady-state kinetics; pH 7.4, 37 °C): 0.00244 µmol/min/mg
FANCI (Gallus gallus, UniProt B0I564) — binding (FANCD2 K361E/K369E/R399E/K400E/K404E/R407E/K974E (Gallus gallus, UniProt Q68Y81); SEC): binds
B8 (LRPAP1) — binding (LRP1 (Homo sapiens, UniProt Q07954); competition with ligand, SPR; with: proMMP-1 75 nM): binds
B9 (MPLKIP) — binding (AQR/XAB2/ISY1/ZNF830/PPIE complex (Homo sapiens); pull-down; 1 hour, 4 °C): binds
B10 (CCS1 1-74 C17S/C20S) — binding (MIA40 284-403, oxidized (UniProt P36046); pull-down; 10 min, pH 7.0, 25 °C, NaCl 200 mM, nonreducing): binds
B11 (UBTF 491-746) — binding (TBP/TAF1A/TAF1B/TAF1C (Homo sapiens); pull-down; not purified SL1; with or without phosphatase): binds
BRD1 fragment E41A/E43A/E45A (Homo sapiens) (sequence not shown) — binding (histone H4 (Bos taurus, UniProt P62803); pull-down): binds
B12 (VPS5/VPS17 SNX-BAR complex) — binding (VPS26/VPS29/VPS35 (Saccharomyces cerevisiae); fluorescence microscopy; supported membrane tubes; 25-50 nM, 25 °C): binds

Repeated from above:
B8 (LRPAP1) — binding (LRP1 (Homo sapiens, UniProt Q07954); competition with ligand, SPR; with: proMMP-1 75 nM): binds
